Earlier results, collected from citations in different studies.
Each line is one published result; not all experiments were run side by side. ± marks the error that the study gave.

O=C1CC(=O)N(c2ccccc2)c2cc(Cl)ccc2N1 — selectivity ratio (human GABAA receptor; Xenopus laevis oocytes; relative to: α2 over α1): 1.33 ± 0.06
CCc1ccc(Oc2ccccc2)c(O)c1 — IC50 (InhA; inhibitor): 2000 ± 700 nM
CCOCC1C(c2ccc(Cl)c(Cl)c2)CC2CCC1N2C (stereo not drawn) — IC50 (norepinephrine transporter; inhibitor): 1.7 nM
CCCCn1c(NCc2ccc(N3N=C(c4ccccc4)CC3c3ccccc3)cc2)nc2ccccc21 (stereo not drawn) — IC50 (coxsackievirus B3 3C protease; inhibitor): 5400 nM
CCCCCc1cc(O)c2c(c1)OC(C)(C)[C@@H]1CCC(C)=C[C@@H]21 — inhibitory concentration (norepinephrine transporter): < 1 µM
CCCCCn1cc(C(=O)c2ccc3c(c2)CC(C)(C)C3)c2ccccc21 — selectivity ratio (cannabinoid receptors; relative to: Ki CB1 over Ki CB2): 7.9
CCCC/C=C/C(=O)N[C@@H](Cc1cc(F)cc(F)c1)C(=O)N[C@@H](COC(=O)[C@@H]1CCCN1C(C)=O)C(=O)OC — EC50 (Bacillus subtilis ClpP; peptidase activity, activator): ~6000 nM
CC(=O)NC1C(O)CC(S(=O)(=O)O)OC1C(O)C(O)CO (stereo not drawn) — potency ratio (influenza virus neuraminidase; relative to: corresponding anomeric phosphonic acids): ≤ 40 fold
COc1cccc2[nH]c(C(=O)N[C@@H](CC(C)C)C(=O)N[C@@H](C[C@@H]3CCNC3=O)C(=O)COP(=O)(O)O)cc12 — IC50 (3C-like protease; enzyme activity, inhibitor): 3 ± 1 nM

A few entries again:
CC(=O)NC1C(O)CC(S(=O)(=O)O)OC1C(O)C(O)CO (stereo not drawn) — potency ratio (influenza virus neuraminidase; relative to: corresponding anomeric phosphonic acids): ≤ 40 fold
